{"data": "Literature values, collected from citations in different studies"}
{"Structure (SMILES)": "CC(C)C[C@H](NC(=O)[C@H](Cc1ccccc1)NC(=O)CNC(=O)CNC(=O)[C@@H](N)Cc1ccc(O)cc1)C(=O)O", "target": "aminopeptidase N", "test": "substrate", "test system": "human plasma", "setting": "0.50 U/mL enzyme", "measurement": "half-life", "result": "41.4 s"}
{"Structure (SMILES)": "[2H]C([2H])([2H])C([2H])([2H])C([2H])([2H])OC(C(=O)OC1CCNCC1)(c1ccccc1)c1ccccc1", "target": "CYP3A, human", "test system": "healthy human", "setting": "3 mg", "measurement": "hepatic CYP3A activity", "result": "no effect"}
{"Structure (SMILES)": "CC[C@H](C)C(=O)N1CCC(NC(=O)Nc2ccc(OC(F)(F)F)c(F)c2)CC1", "target": "OAT3", "test": "inhibitor", "measurement": "IC50", "result": "9.1 µM"}
{"Structure (SMILES)": "CC(=O)NC(CS)C(=O)O (centres unmarked)", "target": "thiol group", "measurement": "pKa", "result": 9.5}
{"Structure (SMILES)": "O=C(OCC[18F])C1C2CCC(CC1c1ccc(/C=C\\I)cc1)N2 (centres unmarked)", "target": "SERT", "test": "microPET", "test system": "anaesthetised, caudate", "measurement": "time to peak uptake", "result": "105 min"}
{"Structure (SMILES)": "O=C(O)CN1CCN(CC(=O)NCCN(Cc2ccccn2)Cc2ccccn2)CCN(CC(=O)O)CCN(CC(=O)NCCN(Cc2ccccn2)Cc2ccccn2)CC1.[Gd+3]", "target": "Albumin (ALB, Homo sapiens, UniProt P02768)", "test": "binding", "measurement": "Kd", "result": "42 µM"}
{"Structure (SMILES)": "COC(=O)[C@@H](N)CS", "target": "thiol group", "measurement": "pKa", "result": 7}
{"Structure (SMILES)": "CCCCCC1=C(NCC)C(=O)C(C/C=C(\\C)CCC=C(C)C)=C(O)C1=O", "target": "cytochrome P450 isoforms", "setting": "concentration not given", "measurement": "inhibition", "result": "no inhibition"}
{"note": "Excerpt of the above:"}
{"Structure (SMILES)": "CC[C@H](C)C(=O)N1CCC(NC(=O)Nc2ccc(OC(F)(F)F)c(F)c2)CC1", "target": "OAT3", "test": "inhibitor", "measurement": "IC50", "result": "9.1 µM"}
